Measurements collected from several papers.
Lines come from different studies, so protocols differ. ± gives the spread as reported.
Chain of UniProt P61073 (whole entry, looked up): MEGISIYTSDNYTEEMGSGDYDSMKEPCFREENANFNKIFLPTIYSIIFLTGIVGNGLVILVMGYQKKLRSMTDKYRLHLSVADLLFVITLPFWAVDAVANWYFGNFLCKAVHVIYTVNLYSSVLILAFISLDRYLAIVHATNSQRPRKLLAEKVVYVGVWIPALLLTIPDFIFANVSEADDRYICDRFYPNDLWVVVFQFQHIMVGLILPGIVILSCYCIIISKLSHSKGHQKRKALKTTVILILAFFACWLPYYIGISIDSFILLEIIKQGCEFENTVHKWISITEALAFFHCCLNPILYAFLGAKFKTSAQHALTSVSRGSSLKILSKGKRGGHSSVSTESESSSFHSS
Chain of UniProt Q9UNQ0 (whole entry, looked up): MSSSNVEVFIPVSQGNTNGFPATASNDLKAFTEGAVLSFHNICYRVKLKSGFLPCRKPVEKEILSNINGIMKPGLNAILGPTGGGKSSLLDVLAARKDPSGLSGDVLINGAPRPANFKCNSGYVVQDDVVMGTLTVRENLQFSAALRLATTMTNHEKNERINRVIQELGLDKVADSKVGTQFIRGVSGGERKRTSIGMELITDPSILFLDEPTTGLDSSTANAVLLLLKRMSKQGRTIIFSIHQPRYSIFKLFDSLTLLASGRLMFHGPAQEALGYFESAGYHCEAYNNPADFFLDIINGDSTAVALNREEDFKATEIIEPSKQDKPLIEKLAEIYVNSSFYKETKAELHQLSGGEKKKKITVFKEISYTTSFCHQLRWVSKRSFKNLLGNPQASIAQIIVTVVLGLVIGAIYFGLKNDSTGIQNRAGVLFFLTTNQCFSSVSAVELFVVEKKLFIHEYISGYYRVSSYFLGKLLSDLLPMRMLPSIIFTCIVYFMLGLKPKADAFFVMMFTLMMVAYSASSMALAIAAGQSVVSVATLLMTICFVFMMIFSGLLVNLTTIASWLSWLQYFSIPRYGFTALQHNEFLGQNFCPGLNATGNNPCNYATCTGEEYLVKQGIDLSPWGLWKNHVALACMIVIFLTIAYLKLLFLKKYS
Chain of UniProt P0A725 (whole entry, looked up): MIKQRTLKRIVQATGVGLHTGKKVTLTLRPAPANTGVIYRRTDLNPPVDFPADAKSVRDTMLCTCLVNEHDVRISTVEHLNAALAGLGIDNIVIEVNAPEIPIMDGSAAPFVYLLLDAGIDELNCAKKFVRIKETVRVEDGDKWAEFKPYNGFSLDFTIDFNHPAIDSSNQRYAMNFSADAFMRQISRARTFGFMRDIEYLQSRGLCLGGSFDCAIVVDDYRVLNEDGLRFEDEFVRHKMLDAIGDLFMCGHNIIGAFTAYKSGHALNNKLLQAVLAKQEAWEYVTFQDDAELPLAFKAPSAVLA

SMILES | tested on | assay | test system | conditions | scale | quantity | value
O=C(O)CCC(NP(=O)(O)OCCC[C@@H](NC(=O)CCC(NC(=O)CCCCCNC(=O)CCCCCNC(=O)c1ccc([18F])cc1)C(=O)O)C(=O)O)C(=O)O (stereo partly drawn) | CWR22Rv1 tumour model | – | host not given, muscle | intravenous, 2 h, tumour-bearing | – | tracer uptake | 0.08 %ID/g
O=C1c2ccccc2-c2c1c1c(O)cccc1n2Cc1ccccc1 | ABCG2 (Homo sapiens, UniProt Q9UNQ0) | mitoxantrone efflux, inhibitor, flow cytometry | HEK293 transfected with ABCG2 | 10 µM, 30 min, together with: mitoxantrone 5 µM | baseline: Ko143 1 µM | inhibition | 68%
O=C(O)CCC(NP(=O)(O)OCCC[C@@H](NC(=O)CCC(NC(=O)c1ccc([18F])cc1)C(=O)O)C(=O)O)C(=O)O (stereo partly drawn) | CWR22Rv1 tumour model | – | host not given, tumour | intravenous, 2 h, tumour-bearing | – | tracer uptake | 1.57 %ID/g
CCCCCc1cc(OC(=O)C(NC(=O)CCC(=O)O)C(C)C)c2c(c1)OC(C)(C)C1CCC(C)=CC21 (stereo not drawn) | – | – | isolated rabbit cornea | 3 h, pH 7.4, 34 °C, donor 0.05% tyloxapol | – | Papp | 3.11 ± 0.4 ×10⁻⁶ cm/s
COc1ccc(CNc2nc(N3CCC[C@H]3CO)ncc2C(=O)NNC(=O)c2cnc(N3CCC[C@H]3CO)nc2NCc2ccc(OC)c(Cl)c2)cc1Cl | Salmonella typhimurium | – | TA102 | 62.5 µg/plate, together with: rat liver S9 | – | revertant count | 273 ± 2
COc1cc(NC(=O)C(=O)c2c(C)n(Cc3ccc(Cl)cc3)c3ccc(C)cc23)ccn1 | – | – | female cynomolgus monkey, plasma | intravenous, 1 mg/kg | – | AUC | 1670 ng·h/mL
CC[C@H](C)C(=O)N1CCC(NC(=O)Nc2ccc(OC(F)(F)F)c(F)c2)CC1 | – | – | healthy volunteers | oral, 0.5 mg single dose | – | subjects with feeling hot TEAE | 0%
CCC(=O)N(C)c1ccc(Cl)c(Cl)c1 | Escherichia coli | Ames test | WP2 uvrA | 0.50 mg/plate, without S9 activation | – | revertants | 41 ± 8.1 revertants/plate
CCN(CC)Cc1cc(Nc2c(C)cnc3cc(Cl)ccc23)ccc1O | Vero WNV replicon cells | – | – | 24 h | – | CC50 | 66.4 ± 4.64 µM
CC(C)[C@H](NC(=O)CNC(=O)[C@H](CCC(N)=O)NC(=O)[C@H](C)N)C(=O)O | – | Definitely drug-related | human | 20 mg/kg, 3 days, thrice daily dosing | – | subjects with adverse events | 0%
CN(C)CC1CCCCC1(O)c1cccc(O)c1 (stereo not drawn) | P-glycoprotein | – | Caco-2 TC7 | 1 µM, 3 h, pH 7.4, together with: cyclosporin A 10 µM | – | efflux ratio | 1
Nc1nc2c([C@@H]3O[C@@H]4COP(=O)(O)O[C@H]5[C@@H](O)[C@H](c6scc7c(=O)[nH]c(N)nc67)O[C@@H]5COP(=O)(O)O[C@H]4[C@H]3O)scc2c(=O)[nH]1 | – | – | water | – | – | emission quantum yield | 0.077
CN[C@](C)(C[18F])C(=O)O | MDA-MB-468 tumour model | – | host not given, muscle | 30 min, tumour-bearing | – | tracer uptake | 2.3 %ID/g
CC1=C[C@H]2c3c(O)cc(CCc4ccccc4)cc3OC(C)(C)[C@H]2CC1 | – | LC-MS/MS | male BALB/c mouse, brain | intraperitoneal, 50 mg/kg, 1 h, together with: Δ9-trans-THC 10 mg/kg and trans-PET 40 mg/kg | – | brain concentration | 1350 nM
O=C(O)CCC(NP(=O)(O)OCCC[C@@H](NC(=O)CCC(NC(=O)CCCCCNC(=O)c1ccc([18F])cc1)C(=O)O)C(=O)O)C(=O)O (stereo partly drawn) | CWR22Rv1 tumour model | – | host not given, lung | intravenous, 2 h, tumour-bearing | – | tracer uptake | 0.21 %ID/g
O=C(/C=C/c1ccc(O)c2oc(-c3ccc(O)c(O)c3)cc12)O[C@H](Cc1ccc(O)c(O)c1)C(=O)O | – | – | human | dose not given, 48 (unit not given) | – | CC50 | > 100 µM
CN1CCN(c2cccc(Nc3cc4c(cn3)cc(-c3cccc(O)c3)c(=O)n4C)c2)CC1 | influenza A virus H1N1 PR8 | – | mouse | dose not given | – | antiviral activity | no effect
Oc1ccc(Nc2ccnc3cc(Cl)ccc23)cc1 | Vero WNV replicon cells | – | – | 24 h | – | CC50 | > 100 µM
O=C1c2c(ccc(O)c2O)CN1Cc1ccc(F)c(Cl)c1 | HOS | ATPlite | – | 48 h | – | CC50 | 5.2 ± 0.2 µM
COc1ccc(CNc2nc(N3CCC[C@H]3CO)ncc2C(=O)NN)cc1Cl | Salmonella typhimurium | – | TA98 | 125 µg/plate, 48 h | – | revertant count | 39 ± 4
C[C@H]1CC[C@H](NC(=S)NNC(=O)c2ccccn2)CC1 | African green monkey cells | cell viability | – | 24 (unit not given) | – | CC50 | 18.8 µM
COc1cc(C(=O)NCCOCCOCCOCCNC(=O)c2ccc([18F])nc2)ccc1NC(=O)C1NC(CC(C)(C)C)C(C#N)(c2ccc(Cl)cc2F)C1c1cccc(Cl)c1F (stereo not drawn) | SJSA-1 tumour model | – | host not given, kidney | 1 h, tumour-bearing | – | tracer uptake | 3.95 %ID/g
COC(=O)C[C@](O)(CCCC(C)(C)OC(C)=O)C(=O)O[C@@H]1C(OC)=C[C@]23CCCN2CCc2cc4c(cc2[C@H]13)OCO4 | – | – | CD1 mouse, kidney | oral, 1 mg/kg, 2 h | – | tissue concentration | 185 ng/mL
O=P(O)(O)Oc1ccc(Oc2ccc(S(=O)(=O)CC3CS3)cc2)cc1 (racemic) | – | – | mouse, plasma | intravenous, 7.8 mg/kg, single dose | – | Vd | 0.185 L/kg
C[C@@](O)(C(F)F)[C@H](NC(=O)c1ccc(C#CC#CC2CC2)cc1)C(=O)NO | UDP-3-O-acyl-N-acetylglucosamine deacetylase (Escherichia coli K-12, UniProt P0A725) | target binding in plasma, rapid equilibrium dialysis | mouse plasma | 10 µM, together with: LpxC 1 µM in buffer | – | buffer-to-plasma concentration ratio | 0.1 ± 0.03
Nc1nc2c([C@@H]3O[C@@H]4COP(=O)(O)O[C@H]5[C@@H](O)[C@H](n6cnc7c(=O)[nH]c(N)nc76)O[C@@H]5COP(=O)(O)O[C@H]4[C@H]3O)scc2c(=O)[nH]1 | – | – | water | – | – | emission quantum yield | 0.18
CN1C(=O)[C@@H](Cc2ccc(O)cc2)NC(=O)CNC(=O)[C@H](Cc2ccc3ccccc3c2)NC(=O)[C@H](CCCNC(=N)N)NC(=O)[C@H]1CCCNC(=O)c1ccc(CNC(=O)CN2CCN(CC(=O)O)CCN(CC(=O)O)CCN(CC(=O)O)CC2)cc1 [gallium-68 labelled] | CXCR4 (Homo sapiens, UniProt P61073) | PET | human, nodal lesions | – | – | SUVmax | 6.64

For quick reference, copied from above:
SMILES | tested on | assay | test system | conditions | scale | quantity | value
COC(=O)C[C@](O)(CCCC(C)(C)OC(C)=O)C(=O)O[C@@H]1C(OC)=C[C@]23CCCN2CCc2cc4c(cc2[C@H]13)OCO4 | – | – | CD1 mouse, kidney | oral, 1 mg/kg, 2 h | – | tissue concentration | 185 ng/mL
O=C(O)CCC(NP(=O)(O)OCCC[C@@H](NC(=O)CCC(NC(=O)CCCCCNC(=O)c1ccc([18F])cc1)C(=O)O)C(=O)O)C(=O)O (stereo partly drawn) | CWR22Rv1 tumour model | – | host not given, lung | intravenous, 2 h, tumour-bearing | – | tracer uptake | 0.21 %ID/g
